Published values pooled from the literature.
Compare with care: the assays were run in different laboratories. Numbers after ± are the reported error.

SMILES | cell line | test | setting | IC50 [µM]
NC1=N[N+](=Cc2c3ccccc3cc3ccccc23)[Ga-3]23([S]1)([S]C(N)=N[N+]2=Cc1c2ccccc2cc2ccccc12)[S]C(N)=N[N+]3=Cc1c2ccccc2cc2ccccc12 | CCD-18Co |  | 48 h | 41.9 ± 1.9
CCC(C(=O)O)C1(O)CCCCC1 (centres unmarked) | Fem-X | cell growth or viability | 72 h | > 200
COc1ccc2cc3[n+](cc2c1OCc1cn(Cc2ccc(S(C)(=O)=O)cc2)nn1)CCc1cc2c(cc1-3)OCO2 | SW1990 | cell growth or viability, MTT |  | 101
COc1ccc2c(c1)c(CC(=O)Nc1nnc(CCCCc3ccc(NC(=O)Cc4cccc(OC(F)(F)F)c4)nn3)[se]1)cn2C | H22 | cell growth, inhibitor, EZMTT | 120 h | 1.8 to 2.9
C=C[C@H](OC(C)=O)c1ccc(OC(C)=O)cc1 | HSC-4 | cell growth or viability, MTT | 24 h | 5.5
C=C1C(=O)[C@@]23CC[C@@H]4[C@](C)(COC(C)=O)CCC[C@@]4(C)[C@@H]2[C@@H](O)C[C@@H]1C3 (single isomer, unassigned) | HBE | cell growth or viability, MTT |  | 8.1
Cc1cc(CN2CCC(CCCCCCC(=O)NO)CC2)cc(C)c1-c1ncn(C)c1-c1ccc(C#N)c2ccccc12 | HuH-1 | cell growth or viability, MTT | 72 h | 0.08
C=CC(=O)NCCCCCCCCCCOCc1cn(CCCCCCCCCCNC(=O)C=C)n[n+]1C | L929 | cell growth or viability | 72 h | 15.1
CC1CC(=O)N(CCCN)N=C1c1ccc(NC(=O)N2Cc3ccncc3C2)cc1 (centres unmarked) | MDA-MB-453 | cell growth or viability, ATP luminescence |  | 0.00078
O=[N+]([O-])[O-].[NH3+][Pt-2]1([NH3+])[O]C(C(F)(F)F)=CC(c2ccccc2)=[O+]1 (centres unmarked) | U2OS | cell growth or viability, MTT |  | 1.6
N=C(N)NCCC[C@H](N)C(=O)N1CCC[C@H]1C(=O)N[C@H](CC(=O)N[C@@H](Cc1ccccc1)C(=O)O)c1cccc2ccccc12 | MCF-7 (no HER2 overexpression) |  |  | > 50
O=C(NO)c1ccc(Cn2sc3ccccc3c2=O)cc1 | REH | cell growth or viability, ATP luminescence | 72 h | 1.8
Cc1cc(C)cc(/C=N/NC(=N)N/N=C/c2cc(C)cc(C)c2)c1 | KP-4 | cell growth or viability, crystal violet | 72 h | 29
COc1c(C)c(OS(=O)(=O)c2ccccc2)c(C)c(O)c1C(=O)/C=C/c1ccccc1 | FaDu | cell growth or viability, SRB | 72 h | 27
O=C1Nc2ccc(-c3ccc4cc(O)ccc4c3)cc2/C1=C/c1ccc(N2CCNCC2)cc1 | NIH3T3 | cell growth or viability, WST-1 | 48 h | 0.283
C=C[CH2][Pd-]([Cl])[Cl].Cc1cc(C)c(-n2c[n+](-c3c(C)cc(C)cc3C)c3c2-c2cccc4cccc-3c24)c(C)c1 | 2008 | cell growth, MTT | 72 h | 2.7 ± 0.6
C[C@H]1[C@H](C)CC[C@]2(C)CC[C@]3(C)C(=CC(=O)[C@@H]4[C@@]5(C)CC[C@@H](O)[C@](C)(C(=O)NCCNC(=O)C6CCCCC6)[C@@H]5CC[C@]43C)[C@H]12 | HBE | cell growth or viability, MTT | 48 h | 25.7

Repeated from above:
SMILES | cell line | test | setting | IC50 [µM]
COc1ccc2c(c1)c(CC(=O)Nc1nnc(CCCCc3ccc(NC(=O)Cc4cccc(OC(F)(F)F)c4)nn3)[se]1)cn2C | H22 | cell growth, inhibitor, EZMTT | 120 h | 1.8 to 2.9
C=C[C@H](OC(C)=O)c1ccc(OC(C)=O)cc1 | HSC-4 | cell growth or viability, MTT | 24 h | 5.5
